Published values collected from several papers.
A part holds a random share of what one study measured. Changes are numbered by the printed parent chain.

Study 1
Target: CCND1, cyclin fold, Cln2 fusion (human)
Technique: yeast growth competition, sequencing
Sample: yeast
Setting: weak parent motif
Reference: not given
Reading: higher = stronger binding
Endpoint: normalised enrichment score
Starting sequence: SLBP docking peptide (human); ARYKRKLLINDFG
F12H: -0.496
R5F: 0.311
K6Y: 0.142
G13S: -0.656
A1D: 0.366
G13F: 0.448
F12N: -0.225
R2M: 0.0714
N10R: -0.481
I9R: -0.151
A1Y: -0.398
F12L: 0.236
L7I: -0.847
R5N: -0.0824
R5G: 0.0202
G13P: 0.254
R2H: 0.199
I9N: 0.136
I9V: -0.217
G13V: 0.577
K4C: -0.361

Study 2
Target: RING finger protein unkempt homolog, zinc fingers 1-6, GST-SBP tag (UNK, Homo sapiens, UniProt Q9C0B0, residues 30-357)
Technique: RNA Bind-n-Seq
Molecule type: RNA
Sample: in vitro
Concentration: not given
Setting: RNA with constant flanks, human and mouse sites, ends assumed
Reference: input RNA pool
Reading: higher = stronger binding
Endpoint: bound/input enrichment
Constant ends, left off below: GGGAGUUCUACAGUCCGACGAUC … CAACAGAGGAUUGAGCAUCA
Residues (chain): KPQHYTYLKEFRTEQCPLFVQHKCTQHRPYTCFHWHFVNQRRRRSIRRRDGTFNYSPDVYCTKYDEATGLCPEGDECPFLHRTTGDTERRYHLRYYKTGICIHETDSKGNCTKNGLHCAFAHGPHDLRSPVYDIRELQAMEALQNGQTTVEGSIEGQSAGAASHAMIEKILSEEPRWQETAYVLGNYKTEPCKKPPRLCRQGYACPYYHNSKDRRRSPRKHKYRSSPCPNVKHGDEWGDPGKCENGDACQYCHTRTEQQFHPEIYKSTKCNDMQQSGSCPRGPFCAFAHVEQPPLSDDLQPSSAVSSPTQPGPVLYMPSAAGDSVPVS
UUUCCGAUCUUGUCCCCCUGCCCUUCCCUCGUAGUCUCUGCAUUUCUCCCCCAAGGUGGCAUUAGCAGGCUUGAGGCUCCCAGGGGAUAGGAACGCCUGGCCUGGCGUGCUUAGCACCGC: 0.247 ratio
GCCAGUAAUUGAUUGAUAACAGGAAGCUAUGAGGGACCCUGUGAGUAGCCAGUACAGUUCCUUUCUUUUCUGGAGGAUGCCCAUCCCAGAACUGGAUCUGUCGGAGCUGGAAGGCCUGGG: 0.251 ratio
GGGUGUUUGUGACCACUGCUUUCAGAGAUUCUUACCAUGUAUUCUGUUUUACAAUGUUUUCAUAGACUGUUAUGCCAGAAGUUUCCGAUGAUCAAUGUAAUAACCUGUUUUAACUGCCUA: 0.36 ratio
GAAGAAUACUCCUUUGGUAGAUCAAAGAUAUUCAUCCGAAACCCAAGAACAUUAUUCAAAUUAGAAGACCUGAGGAAGCAACGCCUGGAGGACUUGGCCACUCUCAUUCAGAAGAUAUAU: 1.12 ratio
CUUCAUGUCUUUCUCUGCAGGCAGGAGUUAAGGUCCUAUUCUCAUGGAUGACUUGUGCUGAUUGUCUUGGUAGUGUGGAUUGAUAUUGUUGCUUCCAUUUUCCAGGCUGACCUAGGACAG: 0.129 ratio
CGGUAUAAGAGAAAUCAAAUAUAUACCUACAUCGGCUCCAUCCUGGCCUCCGUGAACCCCUACCAGCCCAUCGCCGGGCUGUACGAGCCUGCCACCAUGGAGCAGUACAGCCGGCGCCAC: 0.185 ratio
CAGUGGCGUUUGGAGGAGACUCGAAACUGGAUGGCUUCUACAGGGAGCCAGGCCUCUGAUAUAGACGAGAUUUUUGGAUUCUUCAACGAUGGCGAACCUCCCACCAAAAAGCCCAGGAAG: 0.191 ratio
GUAUGGUUACUAAAAAGUACCAGCAUGUUAACUUUAUUACAAUUUGUAUUACUUUCUCUGUAGUUCCUAAUGGAUUCAAUUACGGACUCUGGAUAUUUGCACUUAUGUACUUGAUACUGA: 0.461 ratio
AAUUUUAUACAUUCCAGAUAGAGAGGCAGGCUUAAAGUCUUUUUAAAACAAUAUUUUUUGUAUUUAAGUAAUUGCAGUUAUCUGGGAUUUUUUUUUCUUUUUUUUGGUCAGAAUUCUGAA: 1.14 ratio
UCCGAUGAACAAGAAGAUGAGGAUGCUGUAGUCAACAGGAUAUCGUUGUUUCUGAGCACCUUCACUCUAGCCGUGUCAGCUGGCGCGGUUUUGCUUUUACCCUUCUCAAUCAUCAGCAAU: 0.0849 ratio
ACAUAAAUGGAUCUAAAGACAGCAGUAUUUAACGCAGCUCGGGAUGGCAAACUCCGGCUUCUCACCAAAUUGUUGGCAAGCAAAUCCAAAGAGGAGGUUUCCUCCUUGAUCUCUGAAAAA: 0.113 ratio

Study 3
Target: ABI1, truncated, D143A, DHFR fusion (Arabidopsis thaliana)
Technique: DHFR PCA, deep sequencing
Sample: yeast
Setting: methotrexate growth selection, single substitutions
Together with: (+)-ABA 200 µM
Reference: wild-type fitted maximum
Reading: higher = stronger binding
Endpoint: relative binding score
Starting sequence: PYL1, truncated, DHFR fusion (Arabidopsis thaliana); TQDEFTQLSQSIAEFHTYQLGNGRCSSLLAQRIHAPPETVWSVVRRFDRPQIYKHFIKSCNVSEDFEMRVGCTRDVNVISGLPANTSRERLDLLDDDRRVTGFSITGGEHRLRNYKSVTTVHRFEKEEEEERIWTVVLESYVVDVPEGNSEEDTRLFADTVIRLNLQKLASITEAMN; partner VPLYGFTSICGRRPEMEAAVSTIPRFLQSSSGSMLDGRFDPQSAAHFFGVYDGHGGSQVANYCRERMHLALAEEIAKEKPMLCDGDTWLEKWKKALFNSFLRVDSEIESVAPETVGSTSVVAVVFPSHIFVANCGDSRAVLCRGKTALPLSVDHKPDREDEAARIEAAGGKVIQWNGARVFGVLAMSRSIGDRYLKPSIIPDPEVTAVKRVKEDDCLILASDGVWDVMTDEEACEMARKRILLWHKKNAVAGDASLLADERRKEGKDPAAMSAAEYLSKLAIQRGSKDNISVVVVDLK
T154W: -5.26%
T73D: 78%
S104P: -7.86%
D3T: 101%
V145D: -5.64%
E38W: 89.3%
S150N: 90.6%
Q2D: 103%
A170D: 39.6%
I162T: 26.6%
I52L: 100%
R88Q: 103%
T160A: 76.4%
E4W: 91.6%
N85T: 109%
V62G: 51.2%
N85E: 104%
T135C: 103%
H16V: -7.8%
V44M: 71%
G21D: 96.9%
H110C: 34%
T154I: 69.6%
L156A: 97.9%

Study 4
Target: Sal-like protein 4, full length isoform A (SALL4, Homo sapiens, UniProt Q9UJQ4, residues 1-1053)
Sequence of UniProt Q9UJQ4 (whole entry, looked up): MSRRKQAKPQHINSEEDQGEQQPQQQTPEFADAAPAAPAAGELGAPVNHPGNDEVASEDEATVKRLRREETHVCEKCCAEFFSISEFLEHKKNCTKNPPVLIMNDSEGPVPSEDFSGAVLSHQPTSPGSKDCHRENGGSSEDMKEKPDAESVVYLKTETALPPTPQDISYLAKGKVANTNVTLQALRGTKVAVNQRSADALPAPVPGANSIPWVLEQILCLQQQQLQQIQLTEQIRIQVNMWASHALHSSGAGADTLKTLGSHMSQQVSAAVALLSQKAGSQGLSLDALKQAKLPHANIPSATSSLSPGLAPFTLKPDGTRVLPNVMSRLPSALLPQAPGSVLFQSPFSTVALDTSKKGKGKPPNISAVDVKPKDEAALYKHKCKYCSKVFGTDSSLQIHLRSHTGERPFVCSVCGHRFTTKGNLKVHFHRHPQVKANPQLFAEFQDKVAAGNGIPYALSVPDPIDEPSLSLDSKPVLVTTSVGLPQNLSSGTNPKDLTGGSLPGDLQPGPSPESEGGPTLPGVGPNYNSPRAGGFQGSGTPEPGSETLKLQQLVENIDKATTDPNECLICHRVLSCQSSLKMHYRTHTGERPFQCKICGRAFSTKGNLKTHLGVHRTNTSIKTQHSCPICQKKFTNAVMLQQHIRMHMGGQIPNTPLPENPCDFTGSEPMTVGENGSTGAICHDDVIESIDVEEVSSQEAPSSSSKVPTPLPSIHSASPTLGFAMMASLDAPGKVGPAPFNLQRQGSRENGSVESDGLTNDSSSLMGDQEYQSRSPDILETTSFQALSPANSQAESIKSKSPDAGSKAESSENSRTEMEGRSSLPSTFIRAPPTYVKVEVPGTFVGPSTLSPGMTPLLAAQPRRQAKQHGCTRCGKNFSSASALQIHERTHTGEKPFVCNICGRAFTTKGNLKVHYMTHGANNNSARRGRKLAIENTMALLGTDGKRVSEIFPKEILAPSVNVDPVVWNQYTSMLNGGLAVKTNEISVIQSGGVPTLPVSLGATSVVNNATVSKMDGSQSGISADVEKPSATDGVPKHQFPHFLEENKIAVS
Technique: universal PBM
Molecule type: double-stranded DNA, one strand shown
Sample: in vitro
Concentration: 600 nM
Setting: 8-mer, flanks averaged, mean of replicates
Reading: higher = stronger binding
Endpoint: E-score
AGACGCCC: -0.367
GGGTCCAC: -0.328
ACAGACTG: -0.118
CGGAATAA: 0.0948
ATCCGGAC: -0.284
GAACAGGA: -0.19
CGAGTTAC: -0.0784
TTGAGAAA: 0.279
ATGCTAGC: 0.0595
GCAGCGGA: -0.186
GTTTAAAA: 0.17
CCTGCTAA: -0.108
CGTGACAG: -0.111
CCTGTCCC: -0.184
ATCTCAGA: 0.0115
GGCGCTTA: -0.272
AACCGTTA: 0.0667
GACCACCA: -0.16
TCCAGAGA: -0.145
ACACTTTA: 0.203
CCCGCAAG: -0.349
CGGAGTGC: -0.229
AGTAAATG: 0.152
CACGTAAG: 0.0899
GGCACTTA: -0.11

Study 5
Target: Interferon regulatory factor 3, full length, phosphomimetic (IRF3, Homo sapiens, UniProt Q14653, residues 1-427, S386D/S396D/S398D/S402D/T404D/S405D)
Technique: protein-binding microarray
Molecule type: double-stranded DNA, one strand shown
Sample: in vitro
Concentration: 2540 nM top
Setting: 60-bp whole probe
Together with: salmon DNA 0.4 mg/ml
Reference: random background probes
Reading: higher = stronger binding
Endpoint: fitted relative affinity
Constant ends, left off below: GCCTAGCAC … GTCTTGATTCGCTTGACGCTGCTG
Residues (chain): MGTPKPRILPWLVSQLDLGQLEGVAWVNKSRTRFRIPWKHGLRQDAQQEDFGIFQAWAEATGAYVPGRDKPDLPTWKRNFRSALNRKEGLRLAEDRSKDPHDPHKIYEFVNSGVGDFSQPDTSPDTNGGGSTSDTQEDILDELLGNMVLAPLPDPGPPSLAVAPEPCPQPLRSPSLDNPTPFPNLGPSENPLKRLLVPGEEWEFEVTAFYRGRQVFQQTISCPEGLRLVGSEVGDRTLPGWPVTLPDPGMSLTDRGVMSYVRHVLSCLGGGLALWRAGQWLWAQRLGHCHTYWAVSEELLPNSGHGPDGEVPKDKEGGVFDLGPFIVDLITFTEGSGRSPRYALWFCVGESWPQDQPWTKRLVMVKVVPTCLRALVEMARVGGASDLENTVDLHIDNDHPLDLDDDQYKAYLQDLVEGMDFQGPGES
TTATGTTTCCTACTGCTTTAGTGCTAG: 4.07 z-score
GACGAACCGAGTCTCGAGACGTGCTAG: 0.0454 z-score
GACGAACTGAATATCGAGACGTGCTAG: 0.352 z-score
GACGATATGAGTTTCGAGACGTGCTAG: 1.34 z-score
GACGGTATCCTTTTTCTGACGTGCTAG: 7.38 z-score
GCAGGAGAGACAGAAGTTATGTGCTAG: -0.816 z-score
GACGGTCTCGAACTGGGGACGTGCTAG: 0.249 z-score
CAAGTTTCTCCTTTCGGAATGTGCTAG: 3.61 z-score
GGCGGTATCCTACTGCTGACGTGCTAG: 2.87 z-score
CCAGCTCTTTCGTTACTTCCTGTGCTA: 1.29 z-score
TTAGGAGTGGGGTATCGGTTAGTGCTA: 0.0173 z-score
GACGGTATCGGTATCGGGATGTGCTAG: 4.7 z-score
GACGATCTCAGTCTCCAGACGTGCTAG: 1.07 z-score
GATGGACTGCTTCTCCTGACGTGCTAG: -0.351 z-score
GTCGATATCAGTATCGAGACGTGCTAG: 1.9 z-score
TCTTTTCTGTTGTCTGTGTTTGTGCTA: 2.33 z-score
GACTATCTCAGTATCGAGACGTGCTAG: 0.938 z-score
TCATTAATGAAAATTCTAACTGTGCTA: -0.0544 z-score
TCAATTTACATTTTAGTACTGTGCTAG: 1.59 z-score
TTAGGACAGGGGTTTCGGTTAGTGCTA: 2.8 z-score
TCACACTTCCTTCTGCCACTGTGCTAG: 1.03 z-score

For quick reference, copied from above (study 4):
ATCCGGAC: -0.284
GAACAGGA: -0.19
CGAGTTAC: -0.0784
TTGAGAAA: 0.279
ATGCTAGC: 0.0595
GCAGCGGA: -0.186
GTTTAAAA: 0.17
